Results of several laboratories.
Each line is one published result; not all experiments were run side by side. “And” joins repeats or separate records; there may be more than shown. ± marks the error that the study gave.

| Structure (SMILES) | assay | system | setting | scale | endpoint | value |
| --- | --- | --- | --- | --- | --- | --- |
| COc1cc(OC)c2nccc(N3CCc4c(cc(Cn5ccnc5)cc4-c4cn(C)nc4C(F)(F)F)C3=O)c2c1 | – | CD-1 mouse, male, plasma | oral, 50 mg/kg | – | AUC extrapolated | 0.1% |
| C[C@H]1CNCCN1c1nccc(-c2noc3c2CCC[C@@]32CCCc3sc(N)c(C#N)c32)n1 | – | mouse | po, 50 mg/kg | – | AUC(0-last) | 42.3 µM·h |
| NCCCC[C@H](NCC(=O)O)C(=O)O | ultrafiltration | normal rat serum | 37 °C | – | serum protein binding | 41 ± 39% |
| O=S(=O)(On1nnc2ccccc21)c1cc(C(F)(F)F)cc(C(F)(F)F)c1 | chemical stability, HPLC-MS | borate buffered saline | pH 10.2, no N-acetyl-lysine | – | degradation rate constant | 2 h⁻¹ |
| O=C(NCCN1CCCC1=O)c1ccc(C2CCCCC2)cc1 | liver microsome stability | mouse liver microsomes | 1 µM | – | hepatic clearance | 82 mL/min/kg |
| FC(F)(F)c1ccc(CNc2ccc(Cc3c[nH]c4ncc(Cl)cc34)cn2)cn1 | refers to: Vomiting | patients with advanced solid tumours, non-TGCT cohort | oral, 1000 mg/day, grade 3 or higher | – | treatment-related adverse events | 0% |
| Nc1ncnc2c1c(-c1ccc(Oc3ccccc3)cc1)nn2[C@@H]1CCCN(C(=O)C(O)CO)C1 (stereo partly shown) | – | B-LPD patients | hypertension risk, ROC | – | maximal concentration threshold | 225 mg/L |
| N#CCC(=O)Nc1ccc(C2CCCCC2)cc1 | hepatocyte stability | cryopreserved rat hepatocytes | 1 µM | – | hepatic clearance | 50 mL/min/kg |
| Cc1cc(NC2CCN(C(=O)OC3CCN(C(=O)/C=C/CN(C)C)C3)CC2)n2ncc(C(C)C)c2n1 (stereo not shown) | Phase I dose escalation CTCAE v4.0, refers to: back pain | patients with advanced solid tumours | dose not given, Total dosing any grade | – | patients with adverse event | 6% |
| COc1cc(Nc2ncc3c(n2)-c2ccc(Cl)cc2C(c2c(F)cccc2OC)=NC3)ccc1C(=O)O | – | patients | oral, dose not given, grade 3, any attribution, added: pembrolizumab | – | decreased platelet count incidence | 8% |
| C[C@@H](NC(=O)c1ccc(C#Cc2cccc(F)c2)cn1)C(C)(C)O | modified Racine score | Sprague Dawley rat | intraperitoneal, 0.1 to 10 mg/kg | – | time to peak seizure response | ~1 h |
| Cc1ccc([C@@H]2O[C@H](CO)[C@@H](O)[C@H](O)[C@H]2O)cc1Cc1ccc(-c2ccc(F)cc2)s1 | – | Japanese type 2 diabetes patients | 25 mg, day 3, 24 h urine collection | baseline: baseline | urinary sodium excretion change | -4.79 mEq |
| CC(C)(C(=O)N1CCOc2c(C#N)cncc2C1)C(F)F | refers to: musculoskeletal disorders | healthy humans, both sexes | oral, 40 mg single dose | – | share of subjects with TEAE | 16.7% |
| Cc1cc(/C=C/C#N)cc(C)c1Nc1ccnc(Nc2ccc(C#N)cc2)n1 | – | aqueous buffers and water | 24 h, independent of pH | – | saturation solubility | < 1.5 µg/mL |
| Cn1cc(Nc2nccc(-c3ccc4c(c3)CN(C3COC3)CC[C@H]4NC(=O)c3cn(C(C)(C)C)nn3)n2)cn1 | – | human, whole blood | 150 mg twice daily, day 14 | baseline: pre-dose baseline | CD3+ T cell count change | -1.42% |
| O=C(O)CCCOc1ccc([18F])cc1-c1cc(-c2ccccc2C(F)(F)F)n(-c2ccccc2)n1 | radio-TLC | ddY mice male, heart | intravenous, 37 MBq, 30 min | – | unchanged fraction of radioactivity | 95.1 ± 2.4% |
| Cc1cnc(N2CC3(CCOCC3)C2)c(C(=O)Nc2ccc(C(=O)N3CCc4cc(C(=O)Nc5c(C)cccc5F)sc4-c4ccccc43)cc2)c1 | – | dog plasma | – | – | fu | 0.01 |
| CNCCOC12CC3(C)CC(C)(CC(Cn4ncc(-c5ccc(N6CCc7cccc(C(=O)Nc8nc9ccccc9s8)c7C6)nc5C(=O)O)c4C)(C3)C1)C2 | – | beagle dog, male, anaesthetised | intravenous bolus, 0.03 mg/kg, 45 min | baseline: baseline | dP/dt at 50 change | 1% |
| CC(=O)N1CC(C(=O)Nc2ccc([C@H]3[C@@H](F)[C@@H](F)C[C@@H](F)[C@H]3F)cc2)C1 | liver microsome stability | cynomolgus liver microsomes | 1 µM | – | hepatic clearance | 4.9 mL/min/kg |
| Cl.N=C(CC(O)c1cc2c(F)cc(F)cc2c2cc(C(F)(F)F)ccc12)Nc1ccc(F)c(F)c1 (stereo not shown) | – | human plasma | 2.5 ng/mL, 24 h, 37 °C | – | degradation | 27.5% |
| O=C(c1ccc(C2CCCCC2)cc1)N1CC(O)C1 | liver microsome stability | dog liver microsomes | 1 µM | – | hepatic clearance | 27 mL/min/kg |
| CCCCC1=NC2(CCCC2)C(=O)N1Cc1ccc(-c2ccccc2S(=O)(=O)Nc2noc(C)c2C)c(COCC)c1 | – | healthy adult volunteers, plasma | oral, 100 mg, 14 days repeated dosing, fasted, crushed tablet | – | AUC(0-inf) | 26600 ng·h/mL |
| CC(=O)O[C@H]1C(=O)[C@@]2(C)[C@H]([C@H](OC(=O)c3ccccc3)[C@]3(O)C[C@H](OC(=O)[C@H](O)[C@@H](NC(=O)c4ccccc4)c4ccccc4)C(C)=C1C3(C)C)[C@]1(OC(C)=O)CO[C@@H]1C[C@@H]2O | refers to: Vomiting | patients with advanced solid tumours | intravenous, dose not given, all grades, possibly related to drug | – | adverse event incidence | 24% |

| Structure (SMILES) | assay | system | setting | scale | endpoint | value |
| --- | --- | --- | --- | --- | --- | --- |
| C=CCN1CC(=O)N2[C@@H](Cc3ccc(O)cc3F)C(=O)N(Cc3cccc(N4CC(N5CCN(CC)CC5)C4)n3)C[C@@H]2N1C(=O)NCc1ccccc1 | refers to: Nausea | advanced solid tumour patients | all doses, expansion part, any grade | – | treatment-related adverse events | 78.9% |
| CC(C)C[C@H](NC(=O)[C@@H](N)C(C)C)C(=O)N[C@@H](CCCNC(=N)N)C(=O)N[C@@H](Cc1c[nH]c2ccccc12)C(=O)N[C@@H](CO)C(=O)N[C@@H](CCCNC(=N)N)C(=O)N[C@@H](CCCCN)C(=O)N[C@@H](CC(C)C)C(=O)N1CCC[C@H]1C(=O)N[C@@H](CS)C(=O)N[C@H](C(=O)N[C@@H](CO)C(N)=O)C(C)C | 12G5 competition, SUP-T1 cells | human plasma | 20 µM, 8 h, 37 °C | – | remaining activity | 7 ± 1% |
| N#Cc1ccc2c(c1)[C@H]1CCCN(C(=O)c3ccc4[nH]cnc4c3)[C@H]1C2 | – | human | 160 mg, day 15 | baseline: baseline | cortisol level change | -145 nmol/L |
| O=C(Cc1cccnc1)Nc1ccc([C@H]2[C@@H](F)[C@@H](F)C[C@@H](F)[C@H]2F)cc1 | – | cryopreserved rat hepatocytes | 1 µM | – | hepatic clearance | 20 mL/min/kg |
| O=C(Nc1nc2cccc(-c3ccc(CN4CCS(=O)(=O)CC4)cc3)n2n1)C1CC1 | refers to: non-cardiac chest pain | human rheumatoid arthritis patients | oral, 150 mg once daily, 4 weeks, regardless of relatedness | – | treatment-emergent adverse events | 0% |
| COC1=C(OC)[C@H](O)[C@H](C/C=C(\C)CC/C=C(\C)CCC=C(C)C)[C@@H](C)C1=O | – | mouse, BALB/c, male, whole blood | oral, 50 mg/kg, 4 h | – | blood concentration | 35.2 nM and 31.3 nM |
| CCOc1c([C@H](C)n2nc(C)c3c(N)ncnc32)cc(Cl)c(F)c1[C@@H]1CNC(=O)C1 | – | rat plasma | 1600 ng/mL, 3 weeks, -80 °C, frozen storage | baseline: nominal concentration | stability relative error | 10.1% |
| [18F]c1ccc(-c2ccc3c(c2)[nH]c2ccncc23)cn1 | ex vivo biodistribution | B6SJL mouse, normal, stomach | intravenous, 30 min | – | SUV | 2.07 ± 0.594 |
| Cn1ncnc1[C@H]1c2n[nH]c(=O)c3cc(F)cc(c23)N[C@@H]1c1ccc(F)cc1 | – | human patients, plasma | oral, 600 µg/m2 twice daily, day 1, monotherapy, dose level DL5, median | – | AUC(0-8h) | 24.3 ng·h/mL |
| CNC(=O)c1ccc(-c2cnc3ncc(Cc4ccc5ncccc5c4)n3n2)cc1F | refers to: Insomnia, all grades | gastric cancer patients | oral, 600 mg twice daily, expansion cohort, any causality | – | patients with adverse event | 22% |
| CCc1c(-c2ccccc2)c(-c2ccccc2)nn1-c1ccccc1-c1cccc(OCC(=O)O)c1 | – | Sprague-Dawley rat, small intestine | oral, 10 mg/kg, 1 h | – | concentration | 30100 ng/g and 28100 ng/g |
| CCN1/C(=C/C(C)=O)Sc2ccc(F)cc21 | – | cynomolgus monkey | oral, 100 mg/kg, 2 h post-dose | baseline: pre-dose | systolic blood pressure change | 96.5 ± 3.8% |
| CO[C@H]1C[C@@H]2CC[C@@H](C)[C@@](O)(O2)C(=O)C(=O)N2CCCC[C@H]2C(=O)O[C@H]([C@H](C)C[C@@H]2CC[C@@H](OC(=O)NCCOCCOCCOCCOCCOCCOCCOCCOCCC(=O)N3CCc4cc(Cn5nc(-c6ccc7oc(N)nc7c6)c6c(N)ncnc65)ccc4C3)[C@H](OC)C2)C[C@@H](O)[C@H](C)/C=C(\C)[C@@H](O)[C@@H](OC)C(=O)[C@H](C)C[C@H](C)/C=C/C=C/C=C/1C | – | human, plasma | intravenous, 6 mg, cycle 1 day 15, arithmetic mean | – | Tmax | 54 min |
| Cc1noc(C)c1-c1cc(C(O)(c2ccccn2)c2ccccn2)c2nc(C3CC3)[nH]c2c1 | – | human patients, fasted, plasma | oral, 6 mg once daily, cycle 1 day 8 | – | Ctau | 70.9 ng/mL |
| CN(C)CCC(=O)Nc1ccc(C2CCCCC2)cc1 | hepatocyte stability | cryopreserved mouse hepatocytes | 1 µM | – | hepatic clearance | 71 mL/min/kg |
| C[Si](C)(C)O[Si](C)(C)O[Si](C)(C)O[Si](C)(C)O[Si](C)(C)C | IVIVE from S9 | rainbow trout (Oncorhynchus mykiss) | – | – | hepatic biotransformation rate constant | 0.033 h⁻¹ and 0.026 h⁻¹ and 0.043 h⁻¹ |
| C=CC(=O)NC1CCN(c2ncc3ncnc(Nc4ccc(Oc5ccc6c(c5)ncn6C)c(C)c4)c3n2)CC1 | – | human, male, plasma | oral, 30 mg, fed, adjusted geometric mean | – | AUC(0-tz) | 4.18 µM·h |
| O=C(c1ccc(F)cc1)C1CCN(CCn2c(=O)[nH]c3ccccc3c2=O)CC1 | – | mouse liver microsomes | – | – | hepatic clearance | 65.4 mL/min/kg |
| COCCC(=O)Nc1ccc(C2CCCCC2)cc1 | liver microsome stability | cynomolgus liver microsomes | 1 µM | – | hepatic clearance | 32 mL/min/kg |
| CC1(C)C2CCC1(CS(=O)(=O)[O-])C(=O)C2.[Na+] (racemic) | thermogravimetric analysis | – | nitrogen 10 °C/min | – | degradation onset temperature | 370 °C |
| Fc1ccc(CCCCN2CCN(c3ccccn3)CC2)cc1 | bar test | Sprague-Dawley rat | intraperitoneal, 60 min | – | highest dose without catalepsy | 75 mg/kg |
| CO[C@H]1C[C@@H]2CC[C@@H](C)[C@@](O)(O2)C(=O)C(=O)N2CCCC[C@H]2C(=O)O[C@H]([C@H](C)C[C@@H]2CC[C@@H](O)[C@H](OC)C2)CC(=O)[C@H](C)/C=C(\C)[C@@H](O)[C@@H](OC)C(=O)[C@H](C)C[C@H](C)/C=C/C=C/C=C/1C | – | healthy adult horses | intravenous, 0.06 mg/kg, 72 h | – | heart rate | 33.3 ± 6.2 beats/min |
| Cc1nc(-c2ccc(OCC(C)C)c(C#N)c2)sc1C(=O)O | – | KM mouse, chronic hyperuricaemia model | dose not given, day 24 | – | body weight | 32.9 g and 39.1 g and 43.7 g and 41.2 g and 37.1 g and 34.5 g |

Repeated from above:
| Structure (SMILES) | assay | system | setting | scale | endpoint | value |
| --- | --- | --- | --- | --- | --- | --- |
| CN(C)CCC(=O)Nc1ccc(C2CCCCC2)cc1 | hepatocyte stability | cryopreserved mouse hepatocytes | 1 µM | – | hepatic clearance | 71 mL/min/kg |
| Cc1nc(-c2ccc(OCC(C)C)c(C#N)c2)sc1C(=O)O | – | KM mouse, chronic hyperuricaemia model | dose not given, day 24 | – | body weight | 32.9 g and 39.1 g and 43.7 g and 41.2 g and 37.1 g and 34.5 g |
| COCCC(=O)Nc1ccc(C2CCCCC2)cc1 | liver microsome stability | cynomolgus liver microsomes | 1 µM | – | hepatic clearance | 32 mL/min/kg |
| FC(F)(F)c1ccc(CNc2ccc(Cc3c[nH]c4ncc(Cl)cc34)cn2)cn1 | refers to: Vomiting | patients with advanced solid tumours, non-TGCT cohort | oral, 1000 mg/day, grade 3 or higher | – | treatment-related adverse events | 0% |
